Results pooled from the literature.
Each numbered part is a random draw from the data of one study; scales do not carry over between parts.

Study 1 — technique: protein-binding microarray; molecule type: double-stranded DNA, one strand shown; sample: in vitro; concentration: 0.8 µM; notes: whole 60-bp probe, no competitor; reading: higher = stronger binding; constant ends, left off below: … GTCTTGATTCGCTTGACGCTGCTG
Target: Centromere-binding protein 1, full length, N-terminal tag (CBF1, Saccharomyces cerevisiae, UniProt P17106, residues 1-351)
Sequence of UniProt P17106 (whole entry, looked up): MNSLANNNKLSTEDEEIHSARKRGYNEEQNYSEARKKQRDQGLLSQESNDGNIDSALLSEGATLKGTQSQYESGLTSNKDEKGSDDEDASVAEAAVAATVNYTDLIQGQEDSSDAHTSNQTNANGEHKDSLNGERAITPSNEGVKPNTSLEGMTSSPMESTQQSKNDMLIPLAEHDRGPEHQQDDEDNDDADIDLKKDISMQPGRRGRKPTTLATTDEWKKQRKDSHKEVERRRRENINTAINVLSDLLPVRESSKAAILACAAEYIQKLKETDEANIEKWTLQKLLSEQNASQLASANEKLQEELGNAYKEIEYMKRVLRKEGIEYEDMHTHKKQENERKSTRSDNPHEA
| Oligonucleotide | fluorescence intensity |
| --- | --- |
| CTACGTTTTATATATCACGCTAAAGTGAGACTATTC | 616 a.u. |
| CCTAACTACTATATGCACGTTTAATAGCTTCGTACA | 544 a.u. |
| CTATGTATTTCCTTTCACGTGATGCGCTGGGATTTC | 14600 a.u. |
| CTAAGTAATTGCTTACACGTTCTAGAATAAAAATTC | 692 a.u. |
| GAAATGTCATTTTAACACGTGTGTTGGATGGGATAG | 4390 a.u. |
| GAAAAAAATCAAACCCATGTGGTCGTCATCCTCTAG | 632 a.u. |
| GAATTTCGACCCCATTTCACGTGAATAAAGCGGTAG | 4420 a.u. |
| CTATTTGGCTCAGCAAACGTGCAGCACCATGATTTC | 571 a.u. |

Study 2 — technique: RNA Bind-n-Seq; molecule type: RNA; sample: in vitro; concentration: 20 nM; notes: 6-mer, flanks averaged, single round; together with: 150 mM KCl; reference: input library; reading: higher = stronger binding
Target: TAR DNA-binding protein 43, full length, His tag (TARDBP, Homo sapiens, UniProt Q13148, residues 1-414)
| Oligonucleotide | 6-mer enrichment (R) |
| --- | --- |
| UCGGAC | 0.858 |
| AACUCA | 0.613 |
| CUAGGU | 0.787 |
| AAUGAG | 1.09 |
| UUCCUG | 0.601 |
| UGUCGG | 1.35 |
| AAAAGC | 0.629 |
| CUGAUC | 0.586 |

Study 3 — technique: RNA Bind-n-Seq; molecule type: RNA; sample: in vitro; concentration: 365 nM; reference: no-protein control; reading: higher = stronger binding
Target: RNA binding protein fox-1 homolog 2, RRM domain, GST-SBP tag (RBFOX2, Homo sapiens, UniProt O43251-10, residues 100-194)
Notes: natural RNA segment, single round, ends assumed
Constant ends, left off below: GGGAGUUCUACAGUCCGACGAUC … UGGAAUUCUCGGGUGCCAA
Target sequence (chain): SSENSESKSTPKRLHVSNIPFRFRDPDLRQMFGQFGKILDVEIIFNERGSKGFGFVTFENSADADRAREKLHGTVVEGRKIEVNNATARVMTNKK
| Oligonucleotide | RBNS enrichment (R) |
| --- | --- |
| AAUGCAUAAUAAAUGCUUUGUGCUUCUGACUAUCAAUACCUAAAGAAAGUGCAUCAGUGAAGAGAUGCAAGACUUUCAACUGACUGGCAAAAAGCAAGCUUUAGCUUGUC | 0.2 |
| GACCUGAGAAAGAGUAAGGAGGCCAGGCAGGGCCUUGGGCCCAGGAACAGGUACCUUGAGAGUGAGAGCUACCCAUUGCCUGUGGCCUAAAUCUGCUGUGCAGGUUGGGC | 2.88 |
| AUCUUGAUGCUAGGAUGCUCCUGGUACUAACUAAACAUUGGCAGUUCACAUCCCAGACACCAGGGGUCAGGUACUAACUAAAGAGAUGGAAUGCAGUGUGCUUUUUGAGA | 0.585 |
| CCCAUCAAUUGAACUGUUUCUGGGCUCAGUCAGACACAGACAUUCAUCUGUGUCUGACCAAAUCAGGGGACUUCCCCACCUGUGGUGGGAGGCACAGCUUAGAUGUUUUG | 0.274 |
| CUCGAUUGAAGGUGACCUCUGCCCCAGAUAGGUGGUGCCAGUGGCUUAUUAAUUCCGAUACUAGUUUGCUUUGCUGACCAAAUGCCUGGUACCAGAGGAUGGUGAGGCGA | 0.433 |

Other studies, line by line
| Substance | target | test | system | conditions | scale | quantity | result |
| --- | --- | --- | --- | --- | --- | --- | --- |
| PhoQ, residues 284 288 289 292 302 303 TYGVAM | PhoP, residues 12 14 15 18 19 LHSVW (Escherichia coli, UniProt P23836) | Sort-seq, item: YFP reporter | E. coli | PhoQ-PhoP variant library, together with: 10 µM Mg2+ | reference: high Mg2+ state, higher = stronger signaling | fold induction | 8.68 |

Repeated from above (other studies, line by line):
| Substance | target | test | system | conditions | scale | quantity | result |
| --- | --- | --- | --- | --- | --- | --- | --- |
| PhoQ, residues 284 288 289 292 302 303 TYGVAM | PhoP, residues 12 14 15 18 19 LHSVW (Escherichia coli, UniProt P23836) | Sort-seq, item: YFP reporter | E. coli | PhoQ-PhoP variant library, together with: 10 µM Mg2+ | reference: high Mg2+ state, higher = stronger signaling | fold induction | 8.68 |
